Published values collected from several papers.
Parts stem from different laboratories: compare values within a part only.
Sequence of UniProt P11802 (whole entry, looked up): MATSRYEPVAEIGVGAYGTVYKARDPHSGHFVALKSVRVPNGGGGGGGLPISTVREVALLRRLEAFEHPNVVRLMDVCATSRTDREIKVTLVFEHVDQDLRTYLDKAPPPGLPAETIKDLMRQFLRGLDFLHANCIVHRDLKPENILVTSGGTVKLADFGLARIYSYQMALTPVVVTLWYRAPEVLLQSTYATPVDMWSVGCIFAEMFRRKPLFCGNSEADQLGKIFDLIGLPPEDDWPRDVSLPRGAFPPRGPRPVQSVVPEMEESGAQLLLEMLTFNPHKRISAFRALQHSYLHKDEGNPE
Sequence of UniProt Q15303 (whole entry, looked up): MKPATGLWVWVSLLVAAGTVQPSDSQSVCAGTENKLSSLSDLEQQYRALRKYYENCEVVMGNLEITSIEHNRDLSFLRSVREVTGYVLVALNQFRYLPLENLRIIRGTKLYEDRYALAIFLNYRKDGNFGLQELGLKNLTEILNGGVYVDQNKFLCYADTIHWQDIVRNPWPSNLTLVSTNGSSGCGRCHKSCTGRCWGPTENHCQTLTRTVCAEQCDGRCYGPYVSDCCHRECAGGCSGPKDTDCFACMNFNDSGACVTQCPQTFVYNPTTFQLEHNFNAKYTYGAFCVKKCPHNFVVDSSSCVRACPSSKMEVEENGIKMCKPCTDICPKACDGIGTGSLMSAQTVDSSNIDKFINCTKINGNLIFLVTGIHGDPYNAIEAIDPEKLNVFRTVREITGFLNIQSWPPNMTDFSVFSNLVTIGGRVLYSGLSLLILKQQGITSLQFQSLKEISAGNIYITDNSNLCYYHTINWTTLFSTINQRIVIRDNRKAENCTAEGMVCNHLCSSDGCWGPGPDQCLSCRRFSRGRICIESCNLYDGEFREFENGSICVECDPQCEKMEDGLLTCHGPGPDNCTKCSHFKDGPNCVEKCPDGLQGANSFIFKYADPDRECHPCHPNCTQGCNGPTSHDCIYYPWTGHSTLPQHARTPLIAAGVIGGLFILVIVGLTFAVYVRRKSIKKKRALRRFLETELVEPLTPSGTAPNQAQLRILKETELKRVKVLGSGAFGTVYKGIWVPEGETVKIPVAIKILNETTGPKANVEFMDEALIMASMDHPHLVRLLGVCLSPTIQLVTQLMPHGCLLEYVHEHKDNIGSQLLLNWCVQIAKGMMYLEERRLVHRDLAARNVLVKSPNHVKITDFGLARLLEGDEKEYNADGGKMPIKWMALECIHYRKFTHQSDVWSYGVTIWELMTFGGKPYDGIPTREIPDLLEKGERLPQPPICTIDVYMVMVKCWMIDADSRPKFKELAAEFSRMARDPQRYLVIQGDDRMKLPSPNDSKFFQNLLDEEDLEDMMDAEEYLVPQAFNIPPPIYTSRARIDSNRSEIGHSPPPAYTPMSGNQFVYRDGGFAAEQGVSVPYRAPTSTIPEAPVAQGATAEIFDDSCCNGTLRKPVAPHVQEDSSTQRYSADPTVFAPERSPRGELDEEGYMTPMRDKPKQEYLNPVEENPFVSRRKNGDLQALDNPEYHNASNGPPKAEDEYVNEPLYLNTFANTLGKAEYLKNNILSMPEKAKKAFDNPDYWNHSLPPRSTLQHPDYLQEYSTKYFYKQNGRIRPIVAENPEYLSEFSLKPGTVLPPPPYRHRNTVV
Sequence of UniProt Q9UPZ9 (whole entry, looked up): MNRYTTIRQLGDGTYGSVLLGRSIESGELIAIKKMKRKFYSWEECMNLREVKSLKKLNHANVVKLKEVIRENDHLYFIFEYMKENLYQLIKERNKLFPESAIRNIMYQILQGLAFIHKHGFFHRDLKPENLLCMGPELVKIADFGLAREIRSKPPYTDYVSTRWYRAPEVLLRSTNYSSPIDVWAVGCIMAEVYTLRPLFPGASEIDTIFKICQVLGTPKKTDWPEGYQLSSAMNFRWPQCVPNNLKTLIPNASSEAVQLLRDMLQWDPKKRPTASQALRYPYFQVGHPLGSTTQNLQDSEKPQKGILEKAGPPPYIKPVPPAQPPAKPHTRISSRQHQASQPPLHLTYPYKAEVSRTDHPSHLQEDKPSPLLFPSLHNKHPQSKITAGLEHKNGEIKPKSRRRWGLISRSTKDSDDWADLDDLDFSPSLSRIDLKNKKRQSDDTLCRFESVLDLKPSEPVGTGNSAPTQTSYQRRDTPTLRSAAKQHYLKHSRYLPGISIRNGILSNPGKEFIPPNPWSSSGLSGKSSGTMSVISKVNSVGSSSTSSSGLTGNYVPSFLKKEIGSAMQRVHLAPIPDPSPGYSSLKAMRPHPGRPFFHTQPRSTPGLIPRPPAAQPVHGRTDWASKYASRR
Sequence of UniProt O95835 (whole entry, looked up): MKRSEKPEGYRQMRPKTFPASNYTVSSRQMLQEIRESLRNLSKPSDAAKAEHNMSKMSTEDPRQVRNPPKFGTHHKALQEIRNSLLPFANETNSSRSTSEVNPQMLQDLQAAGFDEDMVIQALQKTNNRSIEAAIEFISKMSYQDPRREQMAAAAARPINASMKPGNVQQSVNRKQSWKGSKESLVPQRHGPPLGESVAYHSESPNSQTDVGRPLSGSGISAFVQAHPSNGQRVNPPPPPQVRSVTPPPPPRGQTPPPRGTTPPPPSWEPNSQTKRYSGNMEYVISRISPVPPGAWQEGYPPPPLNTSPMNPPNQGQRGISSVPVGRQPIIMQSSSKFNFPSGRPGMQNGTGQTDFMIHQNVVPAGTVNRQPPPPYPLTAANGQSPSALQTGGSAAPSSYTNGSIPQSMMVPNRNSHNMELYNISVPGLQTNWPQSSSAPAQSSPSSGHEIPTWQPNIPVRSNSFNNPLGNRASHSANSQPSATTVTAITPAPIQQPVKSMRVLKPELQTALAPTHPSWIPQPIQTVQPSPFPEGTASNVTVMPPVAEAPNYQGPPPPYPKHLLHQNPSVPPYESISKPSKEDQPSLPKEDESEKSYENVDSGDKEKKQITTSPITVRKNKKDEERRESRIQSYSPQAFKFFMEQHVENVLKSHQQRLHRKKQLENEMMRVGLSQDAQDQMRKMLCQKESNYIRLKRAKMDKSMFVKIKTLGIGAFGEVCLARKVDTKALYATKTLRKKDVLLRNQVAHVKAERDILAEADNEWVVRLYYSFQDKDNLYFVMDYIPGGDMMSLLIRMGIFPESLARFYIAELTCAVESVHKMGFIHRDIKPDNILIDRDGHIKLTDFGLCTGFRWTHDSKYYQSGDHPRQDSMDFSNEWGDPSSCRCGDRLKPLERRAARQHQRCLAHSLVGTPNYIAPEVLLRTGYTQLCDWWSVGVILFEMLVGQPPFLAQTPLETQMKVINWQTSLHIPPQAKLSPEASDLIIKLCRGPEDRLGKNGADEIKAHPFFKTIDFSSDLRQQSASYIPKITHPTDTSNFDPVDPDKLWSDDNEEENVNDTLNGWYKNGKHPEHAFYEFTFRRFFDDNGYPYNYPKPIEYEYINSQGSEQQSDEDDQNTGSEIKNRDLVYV

Series 1 — action: agonist
Target: Beta-1 adrenergic receptor (ADRB1, Homo sapiens, UniProt P08588)
Sequence of UniProt P08588 (whole entry, looked up): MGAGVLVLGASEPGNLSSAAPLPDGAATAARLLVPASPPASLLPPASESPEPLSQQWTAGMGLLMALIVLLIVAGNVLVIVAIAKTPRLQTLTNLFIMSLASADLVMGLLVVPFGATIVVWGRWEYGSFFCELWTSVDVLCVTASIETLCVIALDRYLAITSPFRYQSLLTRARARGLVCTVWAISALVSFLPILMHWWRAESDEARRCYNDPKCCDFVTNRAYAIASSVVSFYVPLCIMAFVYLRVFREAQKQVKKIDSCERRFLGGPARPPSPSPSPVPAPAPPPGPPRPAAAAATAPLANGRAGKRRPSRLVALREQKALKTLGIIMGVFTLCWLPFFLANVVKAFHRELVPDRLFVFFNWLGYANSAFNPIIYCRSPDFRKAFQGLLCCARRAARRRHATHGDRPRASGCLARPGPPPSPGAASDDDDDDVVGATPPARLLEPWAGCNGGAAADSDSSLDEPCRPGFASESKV
SMILES | EC50
CC(O)CN1CCN(c2cnc3ccccc3n2)C(C)C1 (stereo not shown) | ≥ 100 µM
N#Cc1cc2c(nc1N1CCCC(COc3ncccc3C(F)(F)F)C1)CCOC2 (stereo not shown) | ≥ 100 µM
O=C1NCCCc2[nH]c(-c3cnn(-c4cccc(F)c4)c3)nc21 | ≥ 100 µM
Clc1cccc(N2CCN(c3ncnc4ccsc34)CC2)c1 | ≥ 100 µM
c1ccc(-c2nc(-c3cnc4ccccc4n3)cs2)cc1 | ≥ 100 µM
CN(C)c1cccc(-c2ncc3c(n2)OCCN(Cc2ccccc2)C3=O)c1 | ≥ 100 µM
CN1CCN(Cc2cccc(OCC(O)CN3CCc4ccccc4C3)c2)CC1 (stereo not shown) | ≥ 100 µM
Cc1nc(Cn2nc(-c3ccccc3)ccc2=O)nc2ccccc12 | ≥ 100 µM
O=C(Nc1cnc2ccccc2c1)c1cn(-c2ccccc2C(F)(F)F)nn1 | ≥ 100 µM
OC(COc1ccc(CN2CC(N3CCOCC3)C2)cc1)CN1CCCCC1 (stereo not shown) | ≥ 100 µM
CN(C)CCN(C)C(=O)c1ccc(NC(=O)Nc2ccc(-c3nc(N4CCOCC4)c4ccn(CC(F)(F)F)c4n3)cc2)cc1 | ≥ 100 µM
CCNC(=O)Nc1ccc([C@@H](O)[C@H]2COCC(=O)N2Cc2ccccc2)cc1 | ≥ 100 µM
CN(c1ccccc1)c1cc(=O)c2ccnc(NCc3cnccn3)c2o1 | ≥ 100 µM
Cc1ccc2c(C(=O)N3CCC(F)(F)CC3)cc(-c3cnn(C(C)C)c3)nc2c1 | ≥ 100 µM

Series 2 — species: mouse; medium: microsomes or S9; concentration: 2 µM; time: 0.5 h
Compound | remaining compound [%]
COc1cc2c(Nc3ccc(Br)cc3F)ncnc2cc1O | 16.5
COC(=O)CN(c1ccccc1OC)S(C)(=O)=O | 31.9
CCCC1(Cn2ccnc2-c2nccn2C)CCC1 | 0.152
COc1ccc(Cc2nc(-c3ccc(S(C)(=O)=O)cc3)c(C)s2)cc1 | 49.2
O=C(NCc1nc(-c2ccc[nH]c2=O)no1)c1ccc2[nH]c(=O)oc2c1 | > 100
CC(C)c1c(Cl)nc(NCCO)nc1N1CCN(C(=O)CO)CC1 | 95.9
CCOC(=O)c1cc2n(c1)CCCc1c(N)n[nH]c1-2 | 35.1
CCN1CC(CN(C)c2ncnc3sccc23)Oc2ccccc21 (stereo not shown) | 0.0196
Nc1ncnc2c1ncn2C[C@@H]1CC[C@H](c2nc(C3CCC3)no2)O1 | > 100
CC(C)(C)c1ccc(-c2n[nH]c(-c3ccccc3N)nc2=O)cc1 | 9.9
COCCN(CC1CCCN(C2Cc3ccccc3C2)C1)C(=O)Cc1c[nH]c2ccccc12 (stereo not shown) | 1.78
Cc1cc2oc(C(=O)N3CCN(C)CC3)c(C)c2cc1C | 0.0104

Series 3 — effect on: enzyme activity; action: inhibitor; concentration: 0.5 µM; relative to: control
Target: Fibroblast growth factor receptor 3 (FGFR3, Homo sapiens, UniProt P22607)
Sequence of UniProt P22607 (whole entry, looked up): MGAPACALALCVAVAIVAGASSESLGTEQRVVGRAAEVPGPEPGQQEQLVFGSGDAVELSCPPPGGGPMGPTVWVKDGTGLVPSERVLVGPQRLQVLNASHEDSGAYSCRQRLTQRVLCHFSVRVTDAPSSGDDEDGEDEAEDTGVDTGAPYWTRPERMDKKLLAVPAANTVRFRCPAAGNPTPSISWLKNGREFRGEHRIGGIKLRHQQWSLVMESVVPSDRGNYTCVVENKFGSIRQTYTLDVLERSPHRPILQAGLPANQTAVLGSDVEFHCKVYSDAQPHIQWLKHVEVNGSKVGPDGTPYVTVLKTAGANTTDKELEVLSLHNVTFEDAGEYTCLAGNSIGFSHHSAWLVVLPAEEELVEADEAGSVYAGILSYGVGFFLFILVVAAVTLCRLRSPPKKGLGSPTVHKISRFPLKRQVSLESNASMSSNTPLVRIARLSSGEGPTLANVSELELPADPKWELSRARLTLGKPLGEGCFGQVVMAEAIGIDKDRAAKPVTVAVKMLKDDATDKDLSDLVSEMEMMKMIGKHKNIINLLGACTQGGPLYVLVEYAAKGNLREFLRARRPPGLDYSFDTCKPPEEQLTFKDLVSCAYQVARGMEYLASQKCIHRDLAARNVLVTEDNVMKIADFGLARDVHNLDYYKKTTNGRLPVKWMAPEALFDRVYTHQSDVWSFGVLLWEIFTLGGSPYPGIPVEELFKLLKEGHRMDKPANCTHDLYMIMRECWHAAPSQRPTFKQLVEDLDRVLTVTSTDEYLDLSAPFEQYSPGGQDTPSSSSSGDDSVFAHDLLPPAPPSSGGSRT
Compound | remaining activity
CC(C)[C@H](CO)Nc1nc(Nc2cc(N)cc(Cl)c2)c2ncn(C(C)C)c2n1 | 79.4%
COc1cc2nccc(Oc3ccc(NC(=S)NC(=O)c4ccccc4C)cc3)c2cc1OC | 88.8%
COc1ccc(C(=O)Nc2sc3c(c2C(N)=O)CCCC3)cc1OC | 98.3%
Cn1c2ccccc2c2c3c(c4c5ccccc5n(CCC#N)c4c21)CNC3=O | 76.7%
CCOC(=O)c1c(C)[nH]c(/C=C2\C(=O)Nc3ccccc32)c1C | 80.4%
Cc1cccc(-c2[nH]c(C(C)(C)C)nc2-c2ccc3c(c2)OCO3)n1 | 96.6%
Nc1[nH]nc2nc3ccccc3nc12 | 96.5%
COc1ccc(OC)c2c(=S)c3ccccc3[nH]c12 | 94.9%
Cn1sc(=O)n(Cc2ccccc2)c1=O | 100%
O=C(O)c1ccc2c3c1cccc3c(=O)n1c3ccccc3nc21 | 92.9%
O=C(CCCc1ccc(-c2ccccc2F)cc1)Nc1ccc(O)cc1 | 103%
Cc1nc(-c2ccccc2)c(-c2ccncc2)o1 | 95.6%
CO[C@H]1C[C@@H]2CC[C@@H](C)[C@@](O)(O2)C(=O)C(=O)N2CCCC[C@H]2C(=O)O[C@H]([C@H](C)C[C@@H]2CC[C@@H](O)[C@H](OC)C2)CC(=O)[C@H](C)/C=C(\C)[C@@H](O)[C@@H](OC)C(=O)[C@H](C)C[C@H](C)/C=C/C=C/C=C/1C | 102%
COc1ccc(CNC(=O)Nc2ncc([N+](=O)[O-])s2)cc1 | 108%
CNC(=O)c1cc(Oc2ccc(NC(=O)Nc3ccc(Cl)c(C(F)(F)F)c3)cc2)ccn1 | 89.5%
O=C1NC(=O)C(c2cn(CCCn3ccnc3)c3ccccc23)=C1Nc1ccccc1 | 100%
OCC(O)CCON=C1C(c2c(O)[nH]c3ccccc23)=Nc2ccccc21 (stereo not shown) | 45.8%
O=S(=O)(c1cccc2cnccc12)N1CCCNCC1 | 94.4%
Cc1ccc(Nc2nccc(N(C)c3ccc4c(C)n(C)nc4c3)n2)cc1S(N)(=O)=O | 39.3%
C#Cc1cccc(Nc2ncnc3cc(OCCOC)c(OCCOC)cc23)c1 | 87.6%
CN(C)c1ccc(C=C2C(=O)Nc3ccccc32)cc1 | 96.3%
N#CC(C#N)=C(N)/C(C#N)=C/c1ccc(O)cc1 | 98.9%

Series 4 — method: competition with immobilised ligand; concentration: 1 µM
Compound: O=C(N1CCS(=O)(=O)CC1)N1C[C@H](c2ccc(OC(F)(F)F)cc2)C[C@H](c2nc(C3CC3)no2)C1
target | effect on | remaining binding
CDC42BPB (Homo sapiens, UniProt Q9Y5S2) | cell-free assay | 100%
Cyclin-dependent kinase 4, with cyclin D3 (CDK4, Homo sapiens, UniProt P11802) | cell-free assay | 88%
CAMK2D (Homo sapiens, UniProt Q13557) | cell-free assay | 100%
PRKD2 (Homo sapiens, UniProt Q9BZL6) | cell-free assay | 100%
EGFR (Homo sapiens, UniProt P00533, del747-752/P753S) | cell-free assay | 100%
MET (Homo sapiens, UniProt P08581) | cell-free assay | 100%
LATS1 (Homo sapiens, UniProt O95835) | cell-free assay | 100%
PRKACB (Homo sapiens, UniProt P22694) | cell-free assay | 100%
MAPK15 (Homo sapiens, UniProt Q8TD08) | cell-free assay | 100%
CILK1 (Homo sapiens, UniProt Q9UPZ9) | binding | 100%
MARK4 (Homo sapiens, UniProt Q96L34) | cell-free assay | 100%
ERBB4 (Homo sapiens, UniProt Q15303) | cell-free assay | 95%
HIPK2 (Homo sapiens, UniProt Q9H2X6) | cell-free assay | 100%

Some of these lines once more (series 4):
target | effect on | remaining binding
ERBB4 (Homo sapiens, UniProt Q15303) | cell-free assay | 95%
LATS1 (Homo sapiens, UniProt O95835) | cell-free assay | 100%
MET (Homo sapiens, UniProt P08581) | cell-free assay | 100%
CAMK2D (Homo sapiens, UniProt Q13557) | cell-free assay | 100%
EGFR (Homo sapiens, UniProt P00533, del747-752/P753S) | cell-free assay | 100%
Cyclin-dependent kinase 4, with cyclin D3 (CDK4, Homo sapiens, UniProt P11802) | cell-free assay | 88%
CILK1 (Homo sapiens, UniProt Q9UPZ9) | binding | 100%
PRKD2 (Homo sapiens, UniProt Q9BZL6) | cell-free assay | 100%
CDC42BPB (Homo sapiens, UniProt Q9Y5S2) | cell-free assay | 100%
HIPK2 (Homo sapiens, UniProt Q9H2X6) | cell-free assay | 100%
